# Published values pooled from the literature.
# Protocols differ between the studies behind these lines. ± gives the spread as reported.
# Neuronal acetylcholine receptor; alpha9/alpha10: Neuronal acetylcholine receptor; alpha9/alpha10 (Homo sapiens, UniProt Q9GZZ6+Q9UGM1)
# cas9: CRISPR-associated endonuclease Cas9/Csn1 (cas9, Streptococcus pyogenes serotype M1, UniProt Q99ZW2)
# ACHE: Acetylcholinesterase (ACHE, Homo sapiens, UniProt P22303)
# Protein kinase 6: Protein kinase 6 (Plasmodium falciparum, UniProt Q8IDW1)
SMILES,target,test,system,setting,IC50 [µM]
COCCCC/C(=N\OCCN)c1ccc(C(F)(F)F)cc1,Neuronal acetylcholine receptor; alpha9/alpha10,inhibitor,,,0.76 ± 0.27
CCN(CC)C(=O)C1CN2CCc3cc(OC)c(OC)cc3C2CC1OC(C)=O (centres unmarked),"ADRA2B (Homo sapiens, UniProt P18089)",inhibitor,,,0.89
COc1cc(C(=O)N2CC[C@@H](O)[C@@H](N)C2)cc2nc(-c3cc4ccccc4n3CC3CC3)n(C)c12,"SLCO1B1 (Homo sapiens, UniProt Q9Y6L6)","transport, inhibitor, imaging",,,7.94
CNCCC=C1c2ccccc2CCc2ccccc21,Neuronal acetylcholine receptor; alpha9/alpha10,inhibitor,,,0.27 ± 0.09
CC(C)(C)NCC(O)c1cc(O)cc(O)c1 (centres unmarked),"Gag polyprotein, nucleocapsid protein p7 (gag, Human immunodeficiency virus type 1 group M subtype B, UniProt P04591)","NCp7-RNA binding, AlphaScreen",HIV-1,"added: 25 nM NCp7, 12.5 nM RNA",22.7
CCCCCCCCCCCCCCCNC(=O)C1CCCCC1,"Hyaluronate lyase (hylB, Streptococcus agalactiae serotype III, UniProt Q53591)","enzyme activity, HILIC UPLC-MS, refers to: hyaluronan disaccharide",,,30.4 ± 9.8
N.N.[Cl][Pt][Cl],cas9,linear substrate,Streptococcus pyogenes,,50 to 100
Nc1c2c(nc3c1C(c1ccc(Cl)c(Cl)c1)c1ccc(OS(=O)(=O)c4ccccc4)cc1O3)CCCC2 (centres unmarked),ACHE,"enzyme activity, inhibitor",,,9.7
CCCCCCCCCCCCCC1OC(=O)/C1=C\CCCCC(N)=O (centres unmarked),"Phosphatidylserine lipase ABHD16A (Homo sapiens, UniProt O95870)",,human cells,,0.2 to 0.5
CCN1CCN(Cc2ccc(Nc3nc4ccc(Oc5ccnc(N)c5)cc4n3C)cc2C(F)(F)F)CC1,Protein kinase 6,"enzyme activity, inhibitor",,,> 50
CC(C)C[C@H](NC(=O)[C@@H](NC(=O)N[C@@H](Cc1ccccc1)C(=O)O)[C@@H]1CCN=C(N)N1)C(=O)N[C@H](C=O)Cc1ccccc1,"Chymase (CMA1, Homo sapiens, UniProt P23946)","enzyme activity, inhibitor",,added: FP-biotin 1 µM,1.08
CCN1CCN(Cc2ccc(Nc3nc4ccc(Oc5ccnc(NC(=O)C6CCN(C)CC6)c5)cc4[nH]3)cc2C(F)(F)F)CC1,Protein kinase 6,"enzyme activity, inhibitor",,,0.4 ± 0.1
CC(=O)N1C[C@@H](CCN2CC=C(c3c[nH]c4cc(Cl)ccc34)CC2)c2ccccc21,"SLC6A4 (Homo sapiens, UniProt P31645, R104A)",,,,0.368
c1ccc2c(c1)OCC(C1=NCCN1)O2 (centres unmarked),"imidazoline I2 receptor, rat central",radioligand binding,,,0.0075
Cc1cc2c(C(C)C)c(O)c(O)c(C=O)c2c(O)c1-c1c(C)cc2c(C(C)C)c(O)c(O)c(C=O)c2c1O,cas9,linear substrate,Streptococcus pyogenes,,10 to 20
CNC(=O)Oc1ccccc1OC(C)C,"Acetylcholinesterase (Rhipicephalus microplus, UniProt O45210, W384F)",,,,0.047
COc1cccc2c1C(=O)c1c(O)c3c(c(O)c1C2=O)C[C@@](O)(C(=O)CO)C[C@@H]3O[C@H]1C[C@H](N)[C@H](O)[C@H](C)O1,cas9,linear substrate,Streptococcus pyogenes,,5 to 10
Cc1ccccc1,"Cytochrome P450 2E1 (CYP2E1, Homo sapiens, UniProt P05181)","enzyme activity, inhibitor",,"30 min, pH 7.4",70
Nc1ccn([C@@H]2O[C@H](COP(=O)(O)OP(=O)(O)OP(=O)(O)O)[C@@H](O)[C@H]2O)c(=O)n1,"pyrG (Escherichia coli, UniProt P0A7E5, C268A)",enzyme activity,,"added: 6.0 mM glutamine, 1.0 mM ATP, 0.20 mM UTP",259 ± 42
CSCC[C@H](NC(=O)[C@H](Cc1ccc(O)cc1)NC(=O)[C@H](CC(C)C)NC(=O)[C@H](CCSC)NC(=O)[C@H](CO)NC(=O)CNC(=O)[C@H](CC(C)C)NC(=O)[C@H](CC(C)C)NC(=O)[C@@H](N)CCSC)C(=O)O,"HLA class I histocompatibility antigen, B alpha chain, allele B*18:01 (Homo sapiens, UniProt P01889)","peptide-MHC binding, radioligand competition binding",,,> 70
CO/N=C1\C[C@]2(C[C@@H]3C[C@@H](C/C=C(\C)C[C@@H](C)/C=C/C=C4\CO[C@@H]5[C@H](O)C(C)=C[C@@H](C(=O)O3)[C@]45O)O2)O[C@H](/C(C)=C/C(C)C)[C@H]1C,"Bile acid receptor (NR1H4, Homo sapiens, UniProt Q96RI1)","receptor activity, inhibitor",,,13.9 ± 0.92
O=c1c2cc(Cl)c(CO)cc2[nH]c(=S)n1Cc1cccnc1,"Potassium voltage-gated channel subfamily KQT member 1, with KCNE1 (KCNQ1, Homo sapiens, UniProt P51787)","KCNQ1/minK current, inhibitor, manual patch clamp",CHO cells,,1.6
COc1cc(NS(C)(=O)=O)ccc1Nc1c2ccccc2nc2ccccc12,cas9,circular plasmid substrate,Streptococcus pyogenes,,100 to 200
COc1cc(Nc2ncc(F)c(Nc3ccc4c(n3)NC(=O)C(C)(C)O4)n2)cc(OC)c1OC,"NMUR2 (Homo sapiens, UniProt Q9GZQ4)",,,,> 10
C[C@@H](O)[C@H](NC(=O)[C@H](CO)NC(=O)[C@@H]1CCCN1C(=O)[C@H](CCC(=O)O)NC(=O)[C@H](Cc1ccccc1)NC(=O)[C@H](CCC(=O)O)NC(=O)[C@@H](N)CCC(=O)O)C(=O)N[C@@H](CCC(N)=O)C(=O)N[C@@H](Cc1ccc(O)cc1)C(=O)N[C@@H](CCC(=O)O)C(=O)N[C@@H](Cc1ccc(O)cc1)C(=O)O,"HLA class I histocompatibility antigen, B alpha chain (Homo sapiens, UniProt P01889)","peptide-MHC binding, radioligand competition binding",,,> 70
Nc1c2c(nc3c1C(c1ccc(Cl)c(Cl)c1)c1ccc(OCC(=O)c4ccccc4)cc1O3)CCCC2 (centres unmarked),ACHE,"enzyme activity, inhibitor",,,0.562
CNC(C)Cc1ccc2nsnc2c1 (centres unmarked),"SLC22A1 (Homo sapiens, UniProt O15245)",,,,5.4 ± 2.2
Nc1c2c(nc3c1C(c1cccc(Br)c1)c1ccc(OCC(=O)c4ccc(Cl)cc4)cc1O3)CCCC2 (centres unmarked),ACHE,"enzyme activity, inhibitor",,,0.994
C[C@H]1CN(c2n[nH]c3nc(N[C@H]4CC[C@H](NS(=O)(=O)CCC(F)(F)F)CC4)ncc23)CCO1,"Exportin-2 (Homo sapiens, UniProt P55060)",biochemical,,,≥ 20

# Excerpt of the above:
SMILES,target,test,system,setting,IC50 [µM]
Cc1ccccc1,"Cytochrome P450 2E1 (CYP2E1, Homo sapiens, UniProt P05181)","enzyme activity, inhibitor",,"30 min, pH 7.4",70
COc1cc(NS(C)(=O)=O)ccc1Nc1c2ccccc2nc2ccccc12,cas9,circular plasmid substrate,Streptococcus pyogenes,,100 to 200
CCCCCCCCCCCCCCCNC(=O)C1CCCCC1,"Hyaluronate lyase (hylB, Streptococcus agalactiae serotype III, UniProt Q53591)","enzyme activity, HILIC UPLC-MS, refers to: hyaluronan disaccharide",,,30.4 ± 9.8
